Experimental data of several laboratories.
Each line is one published result; not all experiments were run side by side. Several values in a cell are separate wells, animals, samples, runs or records. ± marks the error that the study gave.
U2AF2: U2AF2 148-342 (Homo sapiens, UniProt P26368)
Sequence of UniProt P26368 (whole entry, looked up): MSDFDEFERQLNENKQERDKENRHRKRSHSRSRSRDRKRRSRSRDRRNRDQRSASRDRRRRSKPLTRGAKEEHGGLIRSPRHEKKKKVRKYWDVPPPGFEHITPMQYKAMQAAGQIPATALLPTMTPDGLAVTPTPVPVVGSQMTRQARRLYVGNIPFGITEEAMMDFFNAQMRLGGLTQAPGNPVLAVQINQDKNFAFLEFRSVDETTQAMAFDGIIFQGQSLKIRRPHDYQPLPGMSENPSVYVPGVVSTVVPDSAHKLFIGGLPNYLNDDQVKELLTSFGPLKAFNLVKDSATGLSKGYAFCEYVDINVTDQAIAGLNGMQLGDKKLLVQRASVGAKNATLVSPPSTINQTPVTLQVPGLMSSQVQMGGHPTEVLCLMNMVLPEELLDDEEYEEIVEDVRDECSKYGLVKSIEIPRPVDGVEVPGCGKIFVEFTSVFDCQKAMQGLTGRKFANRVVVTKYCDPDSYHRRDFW
SPT15 full length assumed: SPT15 full length assumed (Saccharomyces cerevisiae, UniProt P13393)
Sequence of UniProt P13393 (whole entry, looked up): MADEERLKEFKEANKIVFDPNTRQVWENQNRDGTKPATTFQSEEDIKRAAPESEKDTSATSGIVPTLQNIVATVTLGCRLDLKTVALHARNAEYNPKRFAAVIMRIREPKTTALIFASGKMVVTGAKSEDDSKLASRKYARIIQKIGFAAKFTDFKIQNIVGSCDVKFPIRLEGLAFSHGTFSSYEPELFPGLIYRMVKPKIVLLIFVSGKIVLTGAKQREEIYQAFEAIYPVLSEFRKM
B1: human thioredoxin; sequence looked up; chain VKQIESKTAFQEALDAAGDKLVVVDFSATWCGPCKMIKPFFHSLSEKYSNVIFLEVDVDDCQDVASECEVKCMPTFQFFKKGQKVGEFSGANKEKLEATINELV
B2: human AP2B1; sequence looked up; chain TDSKYFTTNKKGEIFELKAELNNEKKEKRKEAVKKVIAAMTVGKDVSSLFPDVVNCMQTDNLELKKLVYLYLMNYAKSQPDMAIMAVNSFVKDCEDPNPLIRALAVRTMGCIRVDKITEYLCEPLRKCLKDEDPYVRKTAAVCVAKLHDINAQMVEDQGFLDSLRDLIADSNPMVVANAVAALSEISESHPNSNLLDLNPQNINKLLTALNECTEWGQIFILDCLSNYNPKDDREAQSICERVTPRLSHANSAVVLSAVKVLMKFLELLPKDSDYYNMLLKKLAPPLVTLLSGEPEVQYVALRNINLIVQKRPEILKQEIKVFFVKYNDPIYVKLEKLDIMIRLASQANIAQVLAELKEYATEVDVDFVRKAVRAIGRCAIKVEQSAERCVSTLLDLIQTKVNYVVQEAIVVIRDIFRKYPNKYESIIATLCENLDSLDEPDARAAMIWIVGEYAERIDNADELLESFLEGFHDESTQVQLTLLTAIVKLFLKKPSETQELVQQVLSLATQDSDNPDLRDRGYIYWRLLSTDPVTAKEVVLSEKPLISEETDLIEPTLLDELICHIGSLASVYHKPPNAFVEGSHGIHRKHLPIHHGSTDAGDSPVGTTTATNLEQPQVIPSQGDLLGDLLNLDLGPPVNVPQVSSMQMGAVDLLGGGLDSLVGQSFIPSSVPATFAPSPTPAVVSSGLNDLFELSTGIGMAPGGYVAPKAVWLPAVKAKGLEISGTFTHRQGHIYMEMNFTNKALQHMTDFAIQFNKNSFGVIPSTPLAIHTPLMPNQSIDVSLPLNTLGPVMKMEPLNNLQVAVKNNIDVFYFSCLIPLNVLFVEDGKMERQVFLATWKDIPNENELQFQIKECHLNADTVSSKLQNNNVYTIAKRNVEGQDMLYQSLKLTNGIWILAELRIQPGNPNYTLSLKCRAPEVSQYIYQVYDSILKN

Substance | target or system | assay | test system | conditions | how to read | measurement | value
human alpha-actinin-2 | PP6C (human) | co-immunoprecipitation, IP-MS | CYB5R4 knockout cells | concentration not given | relative to: CYB5R4 knockout over parental | log2 fold change | -0.36
colistin | Enterobacter cloacae | broth microdilution | clinical isolate RKI-No_34/16 | – | – | MIC | ≤ 0.5 µg/mL
B1 (human thioredoxin) | PP6C (human) | co-immunoprecipitation, IP-MS | CYB5R4 knockout cells | concentration not given | relative to: CYB5R4 knockout over parental | log2 fold change | 0.74
Peginesatide | UT7/EPO | tyrosine phosphorylation, LC-MS/MS phosphoproteomics, trypsin, measured: GAB1 tyrosine 659 | – | 10 nM, 15 min, added: 10 U/mL EPO | relative to: vehicle | phosphorylation level | 84.6 fold
CAUUUAUGU (ssRNA) | U2AF2 | sequencing of bound RNA | RNA | motif only | – | Kd | 4.02 µM
GSGAGKETRV | construct, MBP fusion, human SCRIB, PDZ 3-4 | automated holdup | peptide, crude extract | concentration not given, uncorrected, unit not given | relative to: biotin control resin, higher = stronger binding | binding intensity | 0.265
Polymyxin B | Staphylococcus aureus | DiSC3(5) fluorescence | – | concentration not given, 48 min | higher = more depolarisation | membrane depolarisation | 533 a.u. and 582 a.u. and 737 a.u.
CCCCCGCGCCTACGCAAGTTTTCCGGATCCGTCCATCAAGTCAATCGGTCC (dsDNA; 5'-amino-C6 primer) | SPT15 full length assumed | array | double-stranded DNA, one strand shown | TBP alone | – | Kd | 0.00125 ± 6e-05 µM
QDEKVKESYV | construct, MBP fusion, human SCRIB, PDZ 3-4 | automated holdup | peptide, crude extract | concentration not given, uncorrected, unit not given | relative to: biotin control resin, higher = stronger binding | binding intensity | 0.545
GUUAAGUUU (ssRNA) | U2AF2 | sequencing of bound RNA | RNA | motif only | – | Kd | 2.46 µM
B2 (human AP2B1) | PP6C (human) | co-immunoprecipitation, IP-MS | CYB5R4 knockout cells | concentration not given | relative to: CYB5R4 knockout over parental | log2 fold change | -1.49
CGTCACTGGCGTGACCGTCCGCGCTACATACTGCGTCAAGTCAATCGGTCC (dsDNA; 5'-amino-C6 primer) | SPT15 full length assumed | array | double-stranded DNA, one strand shown | TBP alone | – | Kd | 0.0178 ± 0.00149 µM
GSGAGRETEV | construct, MBP fusion, human SCRIB, PDZ 3-4 | automated holdup | peptide, purified PDZ protein | concentration not given, unit not given | relative to: biotin control resin, higher = stronger binding | binding intensity | 0.517
liraglutide | – | – | Wistar rat, female, diet-induced obese, blood, fasted | subcutaneous, dose not given, after 4 weeks treatment | – | serum leptin | 24.3 ± 2 ng/mL
GSGAGSETVV | construct, MBP fusion, human SCRIB, PDZ 3-4 | surface plasmon resonance | peptide | concentration not given | higher = stronger binding | normalised SPR binding response | 0 normalised RU
human filamin C | CYB5R4 knockout human cells | PP4 interaction, 3xFLAG-PP4C IP-MS | – | concentration not given | relative to: CYB5R4 KO over parental | log2 fold change | 0.22
milbemycin oxime | Saccharomyces cerevisiae | cell growth | Pdr5 deleted, Cdr1 overexpressed | 2^-3.966 µg/mL, added: fluconazole 1 µg/mL | – | OD600 | 0.082 and 0.07 and 0.088
human DIP2A | CYB5R4 knockout human cells | PP4 interaction, 3xFLAG-PP4C IP-MS | – | concentration not given | relative to: CYB5R4 KO over parental | log2 fold change | 2.15
colistin | Pseudomonas aeruginosa | – | PA2011 PER-producing isolate | – | – | MIC | 0.5 µg/mL

A few entries again:
Substance | target or system | assay | test system | conditions | how to read | measurement | value
human filamin C | CYB5R4 knockout human cells | PP4 interaction, 3xFLAG-PP4C IP-MS | – | concentration not given | relative to: CYB5R4 KO over parental | log2 fold change | 0.22
QDEKVKESYV | construct, MBP fusion, human SCRIB, PDZ 3-4 | automated holdup | peptide, crude extract | concentration not given, uncorrected, unit not given | relative to: biotin control resin, higher = stronger binding | binding intensity | 0.545
